Results from different studies.
Numbered parts are unrelated; each lists some results of a single study.

Block 1 — method: aptamer microarray, sandwich; molecule type: DNA with 2'F-ANA; matrix: in vitro; tested at: 200 nM; together with: Cy3 exosite-II aptamer, 400 nM; reading: higher = stronger binding; sequence: GGTTGGTGTGGTTGG
Target: Prothrombin, mature alpha-thrombin (F2, Homo sapiens, UniProt P00734)
Notes: whole 15-mer aptamer, many near background
For `2'F-ANA at 3 5 8 10 12 15`, “mean fluorescence intensity” read 63.3 a.u.
`2'F-ANA at 2 3 4 5 6 7 12 13` — result for “mean fluorescence intensity”: 111 a.u.
`2'F-ANA at 2 3 10 13 14 15` — result for “mean fluorescence intensity”: 283 a.u.
For `2'F-ANA at 1 2 3 6 8 9 12 13 15`, “mean fluorescence intensity” read 349 a.u.
`2'F-ANA at 3 5 6 8 9 10 12 14` — result for “mean fluorescence intensity”: 77.7 a.u.
`2'F-ANA at 1 2 4 5 6 7 8 12` — result for “mean fluorescence intensity”: 142 a.u.
`2'F-ANA at 1 3 4 5 6 7 10 12 13 15`: “mean fluorescence intensity” 74.6 a.u.
Under “mean fluorescence intensity”, `2'F-ANA at 2 5 6 7 12 13 15` is recorded as 100 a.u.
`2'F-ANA at 1 2 3 5 8 12 14 15` — result for “mean fluorescence intensity”: 50.2 a.u.
`2'F-ANA at 1 3 4 6 7 10 11 14`: “mean fluorescence intensity” 50.3 a.u.
`2'F-ANA at 1 2 3 6 8 9 11 12 13`: “mean fluorescence intensity” 294 a.u.
For `2'F-ANA at 3 6 7 10 12 13 15`, “mean fluorescence intensity” read 528 a.u.

Block 2 — method: RNA Bind-n-Seq; molecule type: RNA; matrix: in vitro; tested at: 365 nM; reference: no-protein control; reading: higher = stronger binding
Target: RNA binding protein fox-1 homolog 2, RRM domain, GST-SBP tag (RBFOX2, Homo sapiens, UniProt O43251-10, residues 100-194)
Notes: natural RNA segment, single round, ends assumed
Construct (chain): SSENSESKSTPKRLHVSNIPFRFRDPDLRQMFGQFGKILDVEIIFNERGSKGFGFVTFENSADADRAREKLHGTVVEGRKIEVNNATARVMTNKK
Under “RBNS enrichment (R)”, `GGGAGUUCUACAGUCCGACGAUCUAAAGAUUUUGUUUUGCCCUGCAAAUAAAAAGACAAUUCCUUAUUGUCUGAAUGUAAUACAGUCUUCAUUGUACUAUUCAACCCUUUGUUUCUUUCUUUUUCAUUUUGUGUGGAAUUCUCGGGUGCCAA` is recorded as 0.717.
Under “RBNS enrichment (R)”, `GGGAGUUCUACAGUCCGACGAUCGCAAACACACUGAUGUAGGAAGCACGAGGAAAGGAAGACGUUUUGAUAUAGUGUUACUGUGAGCCUGUCAGUAGUGGGUACCAAUCUUUUGUGACAUAUUGUCAUGCUGAUGGAAUUCUCGGGUGCCAA` is recorded as 1.29.
`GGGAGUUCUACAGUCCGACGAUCUUUUGACCAAGGUGAGACUUUUGGCAUAAAUUAAAUGGAUUGUGGUCAGCAUUACAUUUGAGAGAAUACUAGACAUGACUACACUUAUUAGGGCUAGUGACUUUCUCAAAUGGAAUUCUCGGGUGCCAA` — result for “RBNS enrichment (R)”: 0.519.
`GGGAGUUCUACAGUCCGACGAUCGAGAACAAAUACACACUUGACAUGGGAGCAAACUGGUUCUGAACUUUGUGACUGUUUGCUAGUGACGCAACUAUUGGUUUUUUGUCAACUGGGCAAUAUGGGUAAAAUUUUGGAAUUCUCGGGUGCCAA` — result for “RBNS enrichment (R)”: 0.849.
Under “RBNS enrichment (R)”, `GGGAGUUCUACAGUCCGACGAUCCAUUUUCUCAUGAGUCUCCAAGCCCACUUGAAAAGUCACACUGAAAGGAUGCAAAUAGCCGUCUGCGAUUUUGGCGGCCCUCCGGAUUGUGGUGACAAUAUGUUGUACCCUGGAAUUCUCGGGUGCCAA` is recorded as 0.239.
For `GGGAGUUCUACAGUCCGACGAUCGGCAGGCCCAGGCCAGCCAGUGCCCGAGGCCAGGAAGGCCGGGCCGUGGAGGUCCUGUCCACAGCUGGACAGGAGAGACACCGCCUGCGGUGGUUCAUUCCUUUCAGCCAUGGAAUUCUCGGGUGCCAA`, “RBNS enrichment (R)” read 0.223.
`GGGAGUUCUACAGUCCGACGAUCAGCCUCUUAAUUCUUUGAAGAACUAAAAAAUUAGGAAACAAAGUUCUAGCAUUUACAAAACUCAGAUCUCAAAGCUCUGCUUGUAUUUGUGAUAUUUCAUUUGCUUAACUUGGAAUUCUCGGGUGCCAA` — result for “RBNS enrichment (R)”: 0.407.
`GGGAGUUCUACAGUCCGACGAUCAGAAAAUAAAAGACUGCACUUUGGAGAGGCAAGCACGCUAUCCGGGUUGUUGUUUUGUUUUAUGUCUUGGUGCUUAGGUGAGGACUUAGCUGGGUUUAUUCAAAGUGGGCUGGAAUUCUCGGGUGCCAA` — result for “RBNS enrichment (R)”: 0.616.

Block 3 — method: universal PBM; molecule type: double-stranded DNA, one strand shown; matrix: in vitro; tested at: not given; reading: higher = stronger binding
Target: Sal-like protein 4, full length isoform B (SALL4, Homo sapiens, UniProt Q9UJQ4-2, residues 1-616)
Notes: 8-mer, flanks averaged, mean of replicates
Residues (chain): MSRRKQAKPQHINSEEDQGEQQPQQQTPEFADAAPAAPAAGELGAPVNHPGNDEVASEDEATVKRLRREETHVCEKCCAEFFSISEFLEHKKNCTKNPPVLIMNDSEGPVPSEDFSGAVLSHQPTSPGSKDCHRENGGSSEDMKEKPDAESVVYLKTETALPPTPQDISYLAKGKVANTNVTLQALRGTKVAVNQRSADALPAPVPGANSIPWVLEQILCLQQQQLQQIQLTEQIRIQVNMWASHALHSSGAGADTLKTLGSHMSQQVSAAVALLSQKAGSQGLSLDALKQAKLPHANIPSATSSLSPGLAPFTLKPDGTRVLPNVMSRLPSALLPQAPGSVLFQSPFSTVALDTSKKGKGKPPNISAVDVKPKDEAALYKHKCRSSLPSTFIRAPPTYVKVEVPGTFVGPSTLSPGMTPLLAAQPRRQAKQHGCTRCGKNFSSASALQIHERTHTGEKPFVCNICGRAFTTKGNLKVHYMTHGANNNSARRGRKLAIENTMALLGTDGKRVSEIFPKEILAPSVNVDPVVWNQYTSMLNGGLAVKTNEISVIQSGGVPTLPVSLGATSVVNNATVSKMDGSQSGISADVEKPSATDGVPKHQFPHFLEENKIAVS
`CTCGTTAC` has an E-score of 0.0619.
With `ATGACACA` the E-score was 0.182.
For `GTACCGCA`, the E-score was -0.171.
`ATACCACA` has an E-score of 0.126.
For `AGAAAAAG`, the E-score was -0.0915.
`AACCTACT` gave an E-score of -0.0307.
`TAGTACTA` has an E-score of 0.166.
For `CTCTCAAG`, the E-score was 0.00382.
`AACTAGCA` has an E-score of -0.035.
`ACTCTTCG` gave an E-score of -0.125.
The E-score of `CCTAGGCC` is reported as -0.215.
For `AACCCGCG`, the E-score was -0.267.
`ATTTCATC` gave an E-score of 0.287.
With `TCTTAAAA` the E-score was 0.25.
With `GCAACAGC` the E-score was -0.138.
For `GCATCTTA`, the E-score was 0.117.

Mixed results
`PhoQ, residues 284 288 289 292 302 303 TGYLSA` gave a fold induction of 15.3 (PhoP, residues 12 14 15 18 19 LQHIR (Escherichia coli, UniProt P23836); Sort-seq, item: YFP reporter; E. coli; PhoQ-PhoP variant library, together with: 10 µM Mg2+; reference: high Mg2+ state, higher = stronger signaling).

Repeated from above (block 2):
Under “RBNS enrichment (R)”, `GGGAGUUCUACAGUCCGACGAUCGCAAACACACUGAUGUAGGAAGCACGAGGAAAGGAAGACGUUUUGAUAUAGUGUUACUGUGAGCCUGUCAGUAGUGGGUACCAAUCUUUUGUGACAUAUUGUCAUGCUGAUGGAAUUCUCGGGUGCCAA` is recorded as 1.29.
`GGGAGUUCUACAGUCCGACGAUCUUUUGACCAAGGUGAGACUUUUGGCAUAAAUUAAAUGGAUUGUGGUCAGCAUUACAUUUGAGAGAAUACUAGACAUGACUACACUUAUUAGGGCUAGUGACUUUCUCAAAUGGAAUUCUCGGGUGCCAA` — result for “RBNS enrichment (R)”: 0.519.
`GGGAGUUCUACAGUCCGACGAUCGAGAACAAAUACACACUUGACAUGGGAGCAAACUGGUUCUGAACUUUGUGACUGUUUGCUAGUGACGCAACUAUUGGUUUUUUGUCAACUGGGCAAUAUGGGUAAAAUUUUGGAAUUCUCGGGUGCCAA` — result for “RBNS enrichment (R)”: 0.849.
Under “RBNS enrichment (R)”, `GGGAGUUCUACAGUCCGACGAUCCAUUUUCUCAUGAGUCUCCAAGCCCACUUGAAAAGUCACACUGAAAGGAUGCAAAUAGCCGUCUGCGAUUUUGGCGGCCCUCCGGAUUGUGGUGACAAUAUGUUGUACCCUGGAAUUCUCGGGUGCCAA` is recorded as 0.239.
